Experimental data collected from several papers.
Each line is one published result; not all experiments were run side by side. Numbers after ± are the reported error.
CYP2C9: Cytochrome P450 2C9 (CYP2C9, Homo sapiens, UniProt P11712)
UniProt P61073, sequence (whole entry, looked up): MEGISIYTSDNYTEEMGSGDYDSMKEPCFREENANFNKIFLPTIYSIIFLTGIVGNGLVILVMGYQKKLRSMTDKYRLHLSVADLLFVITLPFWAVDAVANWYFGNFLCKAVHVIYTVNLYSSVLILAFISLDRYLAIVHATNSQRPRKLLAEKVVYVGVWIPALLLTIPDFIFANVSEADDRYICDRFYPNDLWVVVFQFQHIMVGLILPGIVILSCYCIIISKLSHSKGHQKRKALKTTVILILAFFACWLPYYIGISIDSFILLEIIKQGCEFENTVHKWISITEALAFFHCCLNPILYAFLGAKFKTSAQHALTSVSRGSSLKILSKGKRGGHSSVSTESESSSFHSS
UniProt P10632, sequence (whole entry, looked up): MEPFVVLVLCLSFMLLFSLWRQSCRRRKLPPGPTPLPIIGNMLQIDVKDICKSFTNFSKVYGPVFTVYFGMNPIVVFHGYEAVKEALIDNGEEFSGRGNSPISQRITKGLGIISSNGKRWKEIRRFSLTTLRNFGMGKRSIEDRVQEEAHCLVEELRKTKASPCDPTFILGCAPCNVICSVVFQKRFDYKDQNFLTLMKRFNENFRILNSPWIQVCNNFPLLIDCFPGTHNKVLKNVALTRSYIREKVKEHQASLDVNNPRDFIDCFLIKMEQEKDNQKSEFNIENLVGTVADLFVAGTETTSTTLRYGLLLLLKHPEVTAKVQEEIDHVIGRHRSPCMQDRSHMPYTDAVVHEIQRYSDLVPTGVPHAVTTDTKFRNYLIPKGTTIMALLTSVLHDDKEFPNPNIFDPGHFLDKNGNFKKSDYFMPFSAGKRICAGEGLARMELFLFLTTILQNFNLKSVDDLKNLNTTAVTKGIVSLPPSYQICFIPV
UniProt Q06520, sequence (whole entry, looked up): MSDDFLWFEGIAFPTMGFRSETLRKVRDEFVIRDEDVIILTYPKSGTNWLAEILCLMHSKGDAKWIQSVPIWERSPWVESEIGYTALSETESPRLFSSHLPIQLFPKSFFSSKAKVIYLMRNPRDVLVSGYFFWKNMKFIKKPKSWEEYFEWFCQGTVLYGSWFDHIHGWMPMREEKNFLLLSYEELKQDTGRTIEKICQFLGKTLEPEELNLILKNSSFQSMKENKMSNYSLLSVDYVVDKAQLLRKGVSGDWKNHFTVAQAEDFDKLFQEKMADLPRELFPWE
UniProt P33527, sequence (whole entry, looked up): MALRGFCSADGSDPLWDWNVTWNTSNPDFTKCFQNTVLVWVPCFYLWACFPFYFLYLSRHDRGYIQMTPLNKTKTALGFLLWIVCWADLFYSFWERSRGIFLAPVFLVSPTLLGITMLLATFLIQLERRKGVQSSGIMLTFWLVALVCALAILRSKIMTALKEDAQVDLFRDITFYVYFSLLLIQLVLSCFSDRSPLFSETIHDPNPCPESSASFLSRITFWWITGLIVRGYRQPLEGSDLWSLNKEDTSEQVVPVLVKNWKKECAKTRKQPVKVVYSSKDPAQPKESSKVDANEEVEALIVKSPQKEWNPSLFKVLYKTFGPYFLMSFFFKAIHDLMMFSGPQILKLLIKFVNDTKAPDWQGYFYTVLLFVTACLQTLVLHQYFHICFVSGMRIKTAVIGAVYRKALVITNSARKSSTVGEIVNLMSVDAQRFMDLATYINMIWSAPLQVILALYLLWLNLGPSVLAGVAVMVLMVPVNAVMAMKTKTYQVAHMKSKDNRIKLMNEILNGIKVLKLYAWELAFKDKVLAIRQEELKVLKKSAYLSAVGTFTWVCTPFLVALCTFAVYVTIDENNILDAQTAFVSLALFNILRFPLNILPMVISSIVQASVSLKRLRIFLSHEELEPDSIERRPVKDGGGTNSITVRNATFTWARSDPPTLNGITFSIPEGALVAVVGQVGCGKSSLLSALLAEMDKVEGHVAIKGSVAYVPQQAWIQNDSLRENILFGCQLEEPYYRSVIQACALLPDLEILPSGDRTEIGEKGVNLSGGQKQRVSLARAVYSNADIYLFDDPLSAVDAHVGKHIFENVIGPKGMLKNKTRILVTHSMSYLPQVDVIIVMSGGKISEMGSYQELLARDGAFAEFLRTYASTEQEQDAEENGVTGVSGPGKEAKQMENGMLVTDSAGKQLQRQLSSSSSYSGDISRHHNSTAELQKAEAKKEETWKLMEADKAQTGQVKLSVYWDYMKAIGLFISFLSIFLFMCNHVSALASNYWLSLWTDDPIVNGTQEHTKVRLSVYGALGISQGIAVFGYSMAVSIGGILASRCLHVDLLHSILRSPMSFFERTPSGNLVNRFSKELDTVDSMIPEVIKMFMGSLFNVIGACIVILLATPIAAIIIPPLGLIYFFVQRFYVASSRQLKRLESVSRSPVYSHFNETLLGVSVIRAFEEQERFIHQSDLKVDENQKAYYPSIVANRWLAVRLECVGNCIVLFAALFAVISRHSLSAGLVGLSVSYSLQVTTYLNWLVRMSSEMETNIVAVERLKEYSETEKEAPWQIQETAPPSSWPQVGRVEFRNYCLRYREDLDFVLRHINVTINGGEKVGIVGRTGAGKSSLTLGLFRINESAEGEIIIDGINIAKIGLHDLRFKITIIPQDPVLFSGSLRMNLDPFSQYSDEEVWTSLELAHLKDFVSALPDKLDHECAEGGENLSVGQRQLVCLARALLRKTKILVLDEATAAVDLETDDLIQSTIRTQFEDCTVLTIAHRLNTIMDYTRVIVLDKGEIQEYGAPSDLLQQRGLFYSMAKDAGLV
UniProt P08684, sequence (whole entry, looked up): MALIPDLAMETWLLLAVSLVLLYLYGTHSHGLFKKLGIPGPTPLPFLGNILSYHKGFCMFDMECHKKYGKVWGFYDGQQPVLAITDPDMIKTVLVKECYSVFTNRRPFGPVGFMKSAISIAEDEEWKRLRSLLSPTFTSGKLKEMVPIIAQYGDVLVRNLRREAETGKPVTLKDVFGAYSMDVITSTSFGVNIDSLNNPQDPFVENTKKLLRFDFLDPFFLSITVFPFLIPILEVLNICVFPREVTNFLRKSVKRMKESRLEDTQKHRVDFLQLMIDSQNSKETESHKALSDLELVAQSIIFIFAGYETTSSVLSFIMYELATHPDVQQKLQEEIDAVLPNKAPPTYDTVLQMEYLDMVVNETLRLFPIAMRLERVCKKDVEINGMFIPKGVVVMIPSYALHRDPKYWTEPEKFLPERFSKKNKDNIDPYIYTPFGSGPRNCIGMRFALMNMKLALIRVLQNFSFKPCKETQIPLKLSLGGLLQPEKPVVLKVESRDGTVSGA

`CNC(=O)Oc1cc(C)c(S(C)(=O)=O)c(C)c1` has an inhibition of less than 0% (CYP2C9; inhibitor; human liver microsomes; 2 µM, pH 7.4, added: diclofenac).
For `CCN(CC)CCOc1ccc(-c2nnn(Cc3ccc(OC)cc3)c2N)cc1`, inhibition read “no inhibition” (CYP2C9; enzyme activity, inhibitor; concentration not given).
`C=CC(=O)Nc1cc(Nc2nccc(-c3cn(C)c4ccccc34)n2)c(OCC(F)(F)F)nc1N(C)CCN(C)C` — result for “activity vs control”: 78.4% (Cytochrome P450 3A4 (CYP3A4, Homo sapiens, UniProt P08684); enzyme activity, inhibitor; human, liver microsomes; 3.33 µM, midazolam probe).
The inhibition of `CC(C)(O)c1ccccc1CC[C@H](c1cccc(/C=C/c2ccc3ccc(Cl)cc3n2)c1)[S+]([O-])CC1(CC(=O)O)CC1` (stereo partly drawn) is reported as 93.7% (Cytochrome P450 2C8 (CYP2C8, Homo sapiens, UniProt P10632); human liver microsomes; 2 µM, pH 7.4, added: paclitaxel).
`C=CCc1ccc(O)c(-c2cc(CC=C)cc(O)c2O)c1` has an inhibition of 3.3 ± 2.8% (Multidrug resistance-associated protein 1 (ABCC1, Homo sapiens, UniProt P33527); calcein-AM efflux; 10 µM; relative to: verapamil 30 µM).
With `CCCS(=O)(=O)c1ccc2[nH]c(NC(=O)OC)nc2c1` the inhibition was 11.9% (CYP2C9; inhibitor; human liver microsomes; 10 µM, pH 7.4, added: diclofenac).
`[64Cu+2].c1ccc(CNCc2ccc(CN3CCCNCCNCCCNCC3)cc2)nc1` has a tissue uptake of 0.29 ± 0.02 %ID/g (CXCR4; NOD/SCID mouse, U87 and U87-stb-CXCR4 xenografts, muscle; iv, 90 min, no blocking dose, ex vivo).
`C[C@]12CC[C@H](O)CC1CCC1C2[C@H](O)C(=O)[C@]2(C)[C@@H](c3ccc(=O)oc3)CC[C@]12O` (stereo partly drawn) gave a sulfation rate of 0.021 nmol/min/mg enzyme (Sulfotransferase 2A1 (SULT2A1, Homo sapiens, UniProt Q06520); substrate; recombinant human enzyme; 1 µM, 60 min, pH 7.4).
With `CN1C(=O)[C@@H](Cc2ccc(O)cc2)NC(=O)CNC(=O)[C@H](Cc2ccc3ccccc3c2)NC(=O)[C@H](CCCNC(=N)N)NC(=O)[C@H]1CCCNC(=O)c1ccc(CNC(=O)CN2CCN(CC(=O)O)CCN(CC(=O)O)CCN(CC(=O)O)CC2)cc1` [gallium-68 labelled] the SUVmean was 0.75 (C-X-C chemokine receptor type 4 (CXCR4, Homo sapiens, UniProt P61073); PET imaging; human, lung).

Repeated from above:
For `CCN(CC)CCOc1ccc(-c2nnn(Cc3ccc(OC)cc3)c2N)cc1`, inhibition read “no inhibition” (CYP2C9; enzyme activity, inhibitor; concentration not given).
